Results gathered from unrelated publications.
Lines come from different studies, so protocols differ. “And” joins repeats or separate records; there may be more than shown.

The inhibition of `O=S(=O)(NC1CCC(c2cc(F)ccc2F)(S(=O)(=O)c2ccc(Cl)cc2)CC1)C(F)(F)F` (centres unmarked) is reported as -0.115% (Replicase polyprotein 1ab, main protease (rep, Severe acute respiratory syndrome coronavirus 2, UniProt P0DTD1); reporter gene (mKate2), inhibitor; HEK293T; 20 µM).
`VEVQPQLEM`: “frequency of responding donors” 50 (AIM; peptide, CD8+ T cells from PBMC, human donors; HLA-B*40:01 restricted, unit not given; reference: positive over tested donors).
The antigen-positive cells of `Nc1ncnc2c([C@@H]3N[C@H](CO)[C@@H](O)[C@H]3O)c[nH]c12` is reported as 0.119% and 0.9% (Marburg virus; antibody staining; HeLa, Musoke; 100 µM).
`RIKASMPTT` — result for “frequency of responding donors”: 100 (AIM; peptide, CD8+ T cells from PBMC, human donors; HLA-A*30:01 restricted, unit not given; reference: positive over tested donors).
`CC[C@H](C)[C@H](NC(=O)[C@H](CC(C)C)NC(=O)[C@H](Cc1c[nH]c2ccccc12)NC(=O)[C@H](CCC(N)=O)NC(=O)[C@@H](NC(=O)[C@H](Cc1ccccc1)NC(=O)[C@H](C)NC(=O)[C@H](CCCCNC(=O)COCCOCCNC(=O)COCCOCCNC(=O)CC[C@H](NC(=O)CCCCCCCCCCCCCCCCCCC(=O)O)C(=O)O)NC(=O)[C@H](CCC(N)=O)NC(=O)[C@H](C)NC(=O)[C@@H](NC(=O)[C@H](CCCCN)NC(=O)[C@H](CC(=O)O)NC(=O)[C@H](CC(C)C)NC(=O)C(C)(C)NC(=O)[C@@H](NC(=O)[C@H](CO)NC(=O)[C@H](Cc1ccc(O)cc1)NC(=O)[C@H](CC(=O)O)NC(=O)[C@H](CO)NC(=O)[C@@H](NC(=O)[C@H](Cc1ccccc1)NC(=O)[C@@H](NC(=O)CNC(=O)[C@H](CCC(=O)O)NC(=O)C(C)(C)NC(=O)[C@@H](N)Cc1ccc(O)cc1)[C@@H](C)O)[C@@H](C)O)[C@@H](C)CC)[C@@H](C)CC)C(C)C)C(=O)N[C@@H](C)C(=O)NCC(=O)NCC(=O)N1CCC[C@H]1C(=O)N[C@@H](CO)C(=O)N[C@@H](CO)C(=O)NCC(=O)N[C@@H](C)C(=O)N1CCC[C@H]1C(=O)N1CCC[C@H]1C(=O)N1CCC[C@H]1C(=O)N[C@@H](CO)C(N)=O` — result for “pulse rate change”: 0.96 bpm (patients with type 2 diabetes; 5 mg, day 29, proof of concept, LS mean; reference: baseline).

A few entries again:
The inhibition of `O=S(=O)(NC1CCC(c2cc(F)ccc2F)(S(=O)(=O)c2ccc(Cl)cc2)CC1)C(F)(F)F` (centres unmarked) is reported as -0.115% (Replicase polyprotein 1ab, main protease (rep, Severe acute respiratory syndrome coronavirus 2, UniProt P0DTD1); reporter gene (mKate2), inhibitor; HEK293T; 20 µM).
